{"data": "Experimental data from different studies", "note": "Every numbered part comes from another study and shows a few of its results, in no order."}
{"data": "Set 1", "target": "RING finger protein unkempt homolog, zinc fingers 1-6, GST-SBP tag (UNK, Homo sapiens, UniProt Q9C0B0, residues 30-357)", "technique": "RNA Bind-n-Seq", "form": "RNA", "matrix": "in vitro", "tested at": "not given", "setting": "RNA with constant flanks, human and mouse sites, ends assumed", "baseline": "input RNA pool", "reading": "higher = stronger binding", "constant ends, left off below": "GGGAGUUCUACAGUCCGACGAUC … CAACAGAGGAUUGAGCAUCA", "Residues (chain)": "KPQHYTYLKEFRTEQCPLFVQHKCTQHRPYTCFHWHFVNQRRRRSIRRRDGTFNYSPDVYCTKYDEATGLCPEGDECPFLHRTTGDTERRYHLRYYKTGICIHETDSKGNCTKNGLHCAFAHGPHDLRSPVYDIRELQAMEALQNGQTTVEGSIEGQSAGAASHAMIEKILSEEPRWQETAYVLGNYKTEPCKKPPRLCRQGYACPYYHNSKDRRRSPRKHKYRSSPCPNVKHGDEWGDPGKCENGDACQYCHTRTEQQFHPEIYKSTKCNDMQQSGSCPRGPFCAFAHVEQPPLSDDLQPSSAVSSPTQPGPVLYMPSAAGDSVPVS"}
{"Strand": "UGAGAAUAAUCCUUUUUUUUUCACUAAUGGCAUUGAUGACAUGUUUGAAUCCUGUGUGUUGCAUUUAGAAAAGUAUUCUGAUGACUGUUAUAAACAGUGUGGUGUGAGGCCAUGGACUUC", "bound/input enrichment [ratio]": 1.13}
{"Strand": "UUAGAAUGUUAUUUAGACCAAGUUUAGCUUUUAGAGUCCAGGUCUGGUUAAUUGCCAGGGUAGCAAAGAAUCGCAUGCACCAAUGUAAACAGGAGUCAGAAUGCAUUAUUAGUCAAAGAU", "bound/input enrichment [ratio]": 1.66}
{"Strand": "GAUGAAAAGAUGAGCCCAACAAUUGGAAAACAAUUACUUAAGGGCUCCGCUGAUCCUCUAAAUAGUGCUUUCCAUUUGACCUACAACAUGGUUUUGAACUUACUACGUGUAGAAGAAAUU", "bound/input enrichment [ratio]": 0.14}
{"Strand": "GAGUACAUUGUCUAUGAUAUUGCUCAGGUAAAUCUGAAGUAUCUGCUGAAACUGAAAUUCAAUUUUAAGACCUCCCUGUGGUAAUUGGGAGAGGUAGCCGAGUCACACCCGGUGGCUCUG", "bound/input enrichment [ratio]": 0.152}
{"Strand": "AAGUGGUUCCUUAGGACUCACUCAGGUGCUGGUACUGACCCACUAAUCUGCCAUAGGCCCAGAAAUAUCUUCAGAAGUACGUGAGUUGUUCCUCAGGAAUAGAUUUUUCAUAAAGCAGAA", "bound/input enrichment [ratio]": 0.313}
{"Strand": "ACCCCCUUCGCCGGUACCGGGCUCUUCUUCGGAAAGAUGUCGGACACCGCAGUGGCUGACACUAGGCGCCUUAACUCGAAGCCCCAAGACCUGACCGACGCUUACGGGCCGCCCAGUAAC", "bound/input enrichment [ratio]": 0.227}
{"Strand": "UACCAGCAGGCGUUGCUGCUGCUGGGGGCCACCGCCCUGGCCUGCCUGGCCCUAGAUCUCCUCUUCCUACUCUUCUAUUCCUUCUGGCUGUGCUGCCGGAGGAGAAAGACAGACGAGCAC", "bound/input enrichment [ratio]": 0.0712}
{"Strand": "GCGAGCAAAGUGCUGCUGUGCCAUGGGGAGCUGAAGAAUAAAAGCGGCCAUAAACUGUACAUUUUCCUAUUUCAAGACAUCUUGGUUUUGACUCGGCCUGUCACCCGAAAUGAGCGCCAC", "bound/input enrichment [ratio]": 0.251}
{"data": "Set 2", "target": "Sal-like protein 4, full length isoform A (SALL4, Homo sapiens, UniProt Q9UJQ4, residues 1-1053)", "technique": "universal PBM", "form": "double-stranded DNA, one strand shown", "matrix": "in vitro", "tested at": "600 nM", "setting": "8-mer, flanks averaged, mean of replicates", "reading": "higher = stronger binding", "chain of UniProt Q9UJQ4 (whole entry, looked up)": "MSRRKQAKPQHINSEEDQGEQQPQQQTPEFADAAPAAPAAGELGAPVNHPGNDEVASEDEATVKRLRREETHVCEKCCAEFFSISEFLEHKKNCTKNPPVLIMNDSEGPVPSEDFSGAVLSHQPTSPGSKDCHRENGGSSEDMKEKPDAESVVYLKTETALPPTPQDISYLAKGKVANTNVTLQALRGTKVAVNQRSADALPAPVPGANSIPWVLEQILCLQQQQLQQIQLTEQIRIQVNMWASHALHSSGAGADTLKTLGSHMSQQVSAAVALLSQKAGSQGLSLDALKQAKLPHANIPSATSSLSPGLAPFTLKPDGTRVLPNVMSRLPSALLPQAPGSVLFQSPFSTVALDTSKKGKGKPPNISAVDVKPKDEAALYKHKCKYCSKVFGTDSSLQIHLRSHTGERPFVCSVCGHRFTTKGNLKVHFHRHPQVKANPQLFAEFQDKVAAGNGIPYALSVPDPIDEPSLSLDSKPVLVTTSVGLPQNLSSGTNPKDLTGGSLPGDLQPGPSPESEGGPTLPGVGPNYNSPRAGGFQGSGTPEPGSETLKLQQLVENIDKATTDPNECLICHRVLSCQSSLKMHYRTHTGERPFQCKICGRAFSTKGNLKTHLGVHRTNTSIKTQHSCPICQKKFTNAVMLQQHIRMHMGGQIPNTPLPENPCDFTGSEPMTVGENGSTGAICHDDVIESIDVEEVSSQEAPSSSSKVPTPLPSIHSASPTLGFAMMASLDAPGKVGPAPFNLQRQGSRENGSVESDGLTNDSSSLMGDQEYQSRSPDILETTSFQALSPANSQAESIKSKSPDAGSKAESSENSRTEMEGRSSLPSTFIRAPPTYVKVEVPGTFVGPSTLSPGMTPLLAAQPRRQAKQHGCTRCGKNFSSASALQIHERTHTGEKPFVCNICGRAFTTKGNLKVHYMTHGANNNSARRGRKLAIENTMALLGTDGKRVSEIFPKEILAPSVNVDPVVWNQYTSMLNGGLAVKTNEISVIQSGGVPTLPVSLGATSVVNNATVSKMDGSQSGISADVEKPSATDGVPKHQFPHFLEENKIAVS"}
{"Strand": "CAACCGAA", "E-score": -0.0179}
{"Strand": "AAAGTCGA", "E-score": -0.0662}
{"Strand": "GGATGCCA", "E-score": -0.225}
{"Strand": "AGTGGGAC", "E-score": -0.12}
{"Strand": "TATCGTAA", "E-score": 0.178}
{"Strand": "AGTGACAT", "E-score": 0.111}
{"Strand": "AATCGGGA", "E-score": -0.048}
{"Strand": "ACCTCGGA", "E-score": -0.0783}
{"data": "Set 3", "SMILES": "CN1CC[C@@]2(C)c3cc(O)ccc3N(C)[C@@H]12", "observed": "enzyme activity", "action": "inhibitor", "rep main protease": "Replicase polyprotein 1ab, main protease (rep, Severe acute respiratory syndrome coronavirus 2, UniProt P0DTD1)"}
{"target": "rep main protease", "conditions": "20 µM, hit confirmation", "inhibition [%]": 75.5}
{"target": "Replicase polyprotein 1ab, 3C-like proteinase (rep, Middle East respiratory syndrome-related coronavirus, UniProt K9N7C7)", "conditions": "10 µM", "inhibition [%]": 41}
{"target": "rep main protease", "conditions": "20 µM", "inhibition [%]": -0.64}
{"data": "Set 4", "target": "Ras GTPase-activating protein-binding protein 1, C-terminal RGG region (G3BP1, Homo sapiens, UniProt Q13283)", "technique": "RNA Bind-n-Seq", "form": "RNA", "matrix": "in vitro", "tested at": "1 µM", "setting": "whole 134-nt RNA, ends assumed", "together with": "150 mM KCl", "baseline": "input library", "reading": "higher = stronger binding", "constant ends, left off below": "GGGAGUUCUACAGUCCGACGAUC … UGGAAUUCUCGGGUGUCAAGG", "chain of UniProt Q13283 (whole entry, looked up)": "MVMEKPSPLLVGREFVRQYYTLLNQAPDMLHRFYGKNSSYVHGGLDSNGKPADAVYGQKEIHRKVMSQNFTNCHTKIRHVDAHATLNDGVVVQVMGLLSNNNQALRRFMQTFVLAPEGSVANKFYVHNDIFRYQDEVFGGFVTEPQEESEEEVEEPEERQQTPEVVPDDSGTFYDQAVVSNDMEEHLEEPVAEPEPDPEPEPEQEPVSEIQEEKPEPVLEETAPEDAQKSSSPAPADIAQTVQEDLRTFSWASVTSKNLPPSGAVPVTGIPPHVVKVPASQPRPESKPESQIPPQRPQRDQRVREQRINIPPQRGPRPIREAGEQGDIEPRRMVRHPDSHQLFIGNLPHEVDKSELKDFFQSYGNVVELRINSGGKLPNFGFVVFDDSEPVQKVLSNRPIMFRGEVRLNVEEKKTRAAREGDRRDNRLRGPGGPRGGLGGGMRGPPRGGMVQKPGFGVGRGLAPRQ"}
{"Strand": "AGUCCUGUGCUACACAUCGUAUGUACCGAAUCGGGGCCCCGGGGCCCCGGCCCCGGGGAAAGUAUUAUGUUACGCCGUUCGGAUCUGCAC", "log2 enrichment": -2.9}
{"Strand": "ACCAUGCAGGUGGGCAUCUUUGGGAAGUGGGGCAAGGGGGGGAUAGGGAGGGGGGUAACACUAAAGGAACAGGUGGUCCCAGGUCGUUUC", "log2 enrichment": -0.887}
{"Strand": "ACCAUGCAGGUGGGCAUCUUUGGGAAGUGGGGCAAGGGGGGGAUAGGGAGGGGGGUAACACUUUCGGAACAGGUGGUCCCAGGUCGUUUC", "log2 enrichment": 2.37}
{"Strand": "UGGGAGGUGGAUUUUGUUUAUUUUUUUAGCUCAUUUCCAGGGGUGGGAAUUUUUUUUUAAUAGGUGUCAUGAAUAAAGUUGUUUUUGAAA", "log2 enrichment": 3.18}
{"Strand": "CACAGACAACACGCACCCACACAGACACAGAGGGAAGGGGUUGGGAUGGGGACAGGGUGCACAGCAGGGCGGGGUAGGAAAACAGCCCCU", "log2 enrichment": -0.00735}
{"Strand": "UUUUGAGGAAAGGAUGAAGGAGCUCAGAGAAGAGGUAAGGGUCUCCUAUCCUUCCCCUCUCCCCCAGAUUUGAGUUUUAUGUUAUGAAUC", "log2 enrichment": -1}
{"Strand": "GCAGGAAGUAAAAACAAAUGGAAAUGCUUCGGAUAGUGGCAGGGGUGGGGGUUGCUAAGGAAAGUGUGGGAUGGGAGUGGGUAAAGAGUU", "log2 enrichment": 1.34}
{"Strand": "ACCAUGCAGGUGGGCAUCUUUGGGAAGUGGGGCAAGGGGGGGAUAGGGAGGGGGGUAAUACUUUGGGAACAGGUGGUCCCAGGUCGUUUC", "log2 enrichment": 2.5}
{"data": "Set 5", "target": "Replicase polyprotein 1ab, polymerase (rep, Severe acute respiratory syndrome coronavirus 2, UniProt P0DTD1)", "observed": "enzyme activity", "action": "inhibitor", "tested at": "20 µM"}
{"Compound": "CO[C@@H]1[C@@H](OC(N)=O)[C@@H](O)[C@H](Oc2ccc3c(O)c(NC(=O)c4ccc(O)c(CC=C(C)C)c4)c(=O)oc3c2C)OC1(C)C", "inhibition [%]": 29.1}
{"Compound": "CCCCC1=NC2(CCCC2)C(=O)N1Cc1ccc(-c2ccccc2-c2nnn[nH]2)cc1", "inhibition [%]": -4.21}
{"Compound": "Cc1ccc(OC[C@@H](O)[C@H](C)NC(C)C)c2c1CCC2", "inhibition [%]": 2.69}
{"Compound": "Cc1nc(=O)c2cc(CN(C)c3ccc(C(=O)N[C@@H](CCC(=O)O)C(=O)O)s3)ccc2[nH]1", "inhibition [%]": 0.59}
{"Compound": "CCOC(=O)c1ccc(OC(=O)CCCCCNC(=N)N)cc1", "inhibition [%]": 4.82}
{"Compound": "C[C@H](N=C(NC#N)Nc1cccc2ncccc12)c1ccccc1", "inhibition [%]": -3.61}
{"Compound": "COc1ccc(C2CNC(=O)NC2)cc1O[C@H]1C[C@@H]2CC[C@H]1C2", "inhibition [%]": 2.85}
{"Compound": "CN1CCC(Nc2ncc3ncnc(Nc4ccc(F)c(Cl)c4)c3n2)CC1", "inhibition [%]": 4.93}
{"Compound": "CC1(C)OC(=O)NC1=O", "inhibition [%]": 12.6}
{"Compound": "CCc1nn(CCCN2CCN(c3cccc(Cl)c3)CC2)c(=O)n1CCOc1ccccc1", "inhibition [%]": -0.87}
{"Compound": "CC[C@@]1(O)C(=O)OCc2c1cc1n(c2=O)Cc2cc3c(CN(C)C)c(O)ccc3nc2-1", "inhibition [%]": 5.14}
{"Compound": "CC(C)CN(C[C@@H](O)[C@H](Cc1ccccc1)N(C(=O)CNCc1cccc(F)c1)[C@H](C(N)=O)C(C)(C)C)S(=O)(=O)c1cccc(N)c1", "inhibition [%]": -3.35}
{"Compound": "COc1ccc2c3c([nH]c2c1)[C@H](CC(C)C)N1C(=O)[C@H](CCC(=O)OC(C)(C)C)NC(=O)[C@@H]1C3", "inhibition [%]": -5.07}
{"Compound": "CN1CCCN(C(c2ccccc2)c2ccc(Cl)cc2)CC1 (stereo not drawn)", "inhibition [%]": 1.59}
{"Compound": "COc1ccc2c(c1)N(C[C@H](C)CN(C)C)c1ccccc1S2", "inhibition [%]": -1.09}
{"Compound": "CCC(c1ccccc1)c1c(O)c2ccccc2oc1=O (stereo not drawn)", "inhibition [%]": 4.16}
{"Compound": "O=C(O)CCCNC(=O)c1cccnc1", "inhibition [%]": 2.71}
{"Compound": "O=C1O[C@H](CO)[C@@H](O)[C@H](O)[C@H]1O", "inhibition [%]": -2.84}
{"Compound": "Nc1cc(F)ccc1NC(=O)/C=C/c1cnn(C/C=C/c2ccccc2)c1", "inhibition [%]": -0.15}
{"Compound": "Cc1cc(SCc2sc(-c3ccc(C(F)(F)F)c(F)c3)nc2C)ccc1OCC(=O)O", "inhibition [%]": -0.65}
{"Compound": "O=C1c2c(O)cccc2C([C@@H]2O[C@H](CO)[C@@H](O)[C@H](O)[C@H]2O)c2cc(CO)cc(O)c21 (stereo partly drawn)", "inhibition [%]": 8.25}
{"Compound": "CCOC(=O)CNC(=O)[C@@H]1CCCN1C(=O)Cc1ccccc1", "inhibition [%]": -2.7}
{"Compound": "CN(C)CC[C@H](CSc1ccccc1)Nc1ccc(S(=O)(=O)NC(=O)c2ccc(N3CCN(Cc4ccccc4-c4ccc(Cl)cc4)CC3)cc2)cc1[N+](=O)[O-]", "inhibition [%]": -0.4}
{"Compound": "Cc1cccc(C)c1NC1=NCCCS1", "inhibition [%]": 22.6}
{"Compound": "CC(=O)Nc1ccc(OC[C@](C)(O)C(=O)Nc2ccc([N+](=O)[O-])c(C(F)(F)F)c2)cc1", "inhibition [%]": 0.34}
{"data": "Other studies, line by line", "cell line": "HEK-293T/ACE2", "tested at": "concentration not given"}
{"Substance": "CCCCCCCCc1ccc(CCC(N)(CO)CO)cc1.Cl", "test": "pseudovirus infection", "system": "VSV pseudotyped with SARS-CoV-2 spike", "how to read": "baseline: vehicle-treated", "measurement": "GFP-positive cells", "result": "38.4%"}
{"Substance": "Tyloxapol", "how to read": "baseline: vehicle", "measurement": "nuclei number", "result": "98.6%"}
{"note": "Some of these lines once more (set 5):"}
{"Compound": "CN1CCC(Nc2ncc3ncnc(Nc4ccc(F)c(Cl)c4)c3n2)CC1", "inhibition [%]": 4.93}
{"Compound": "CC1(C)OC(=O)NC1=O", "inhibition [%]": 12.6}
{"Compound": "CCc1nn(CCCN2CCN(c3cccc(Cl)c3)CC2)c(=O)n1CCOc1ccccc1", "inhibition [%]": -0.87}
{"Compound": "CC[C@@]1(O)C(=O)OCc2c1cc1n(c2=O)Cc2cc3c(CN(C)C)c(O)ccc3nc2-1", "inhibition [%]": 5.14}
{"Compound": "CC(C)CN(C[C@@H](O)[C@H](Cc1ccccc1)N(C(=O)CNCc1cccc(F)c1)[C@H](C(N)=O)C(C)(C)C)S(=O)(=O)c1cccc(N)c1", "inhibition [%]": -3.35}
